Results collected from several papers.
Every numbered part comes from another study and shows a few of its results, in no order. ± gives the spread as reported.
UniProt Q9UBF8, sequence (whole entry, looked up): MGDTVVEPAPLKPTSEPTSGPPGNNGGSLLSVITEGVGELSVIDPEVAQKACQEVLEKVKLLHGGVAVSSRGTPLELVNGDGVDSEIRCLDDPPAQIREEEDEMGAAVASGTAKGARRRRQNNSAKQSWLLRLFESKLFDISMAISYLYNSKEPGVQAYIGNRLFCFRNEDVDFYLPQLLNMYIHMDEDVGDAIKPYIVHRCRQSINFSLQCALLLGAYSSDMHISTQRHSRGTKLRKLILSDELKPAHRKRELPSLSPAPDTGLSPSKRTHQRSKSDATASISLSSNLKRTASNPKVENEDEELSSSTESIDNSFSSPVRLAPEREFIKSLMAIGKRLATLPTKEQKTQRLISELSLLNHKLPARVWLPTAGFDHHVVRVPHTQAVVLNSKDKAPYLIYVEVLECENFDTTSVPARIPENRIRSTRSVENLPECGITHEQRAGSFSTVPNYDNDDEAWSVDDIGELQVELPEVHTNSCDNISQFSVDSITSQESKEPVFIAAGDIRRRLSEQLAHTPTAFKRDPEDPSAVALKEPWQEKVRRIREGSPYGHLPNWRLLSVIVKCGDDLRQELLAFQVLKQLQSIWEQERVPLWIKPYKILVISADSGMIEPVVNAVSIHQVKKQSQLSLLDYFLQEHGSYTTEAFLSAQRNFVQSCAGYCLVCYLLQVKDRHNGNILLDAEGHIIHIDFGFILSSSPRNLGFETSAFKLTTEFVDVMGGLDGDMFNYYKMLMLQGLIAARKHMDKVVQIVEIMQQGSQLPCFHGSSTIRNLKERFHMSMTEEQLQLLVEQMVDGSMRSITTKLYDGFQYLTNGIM
UniProt O75676, sequence (whole entry, looked up): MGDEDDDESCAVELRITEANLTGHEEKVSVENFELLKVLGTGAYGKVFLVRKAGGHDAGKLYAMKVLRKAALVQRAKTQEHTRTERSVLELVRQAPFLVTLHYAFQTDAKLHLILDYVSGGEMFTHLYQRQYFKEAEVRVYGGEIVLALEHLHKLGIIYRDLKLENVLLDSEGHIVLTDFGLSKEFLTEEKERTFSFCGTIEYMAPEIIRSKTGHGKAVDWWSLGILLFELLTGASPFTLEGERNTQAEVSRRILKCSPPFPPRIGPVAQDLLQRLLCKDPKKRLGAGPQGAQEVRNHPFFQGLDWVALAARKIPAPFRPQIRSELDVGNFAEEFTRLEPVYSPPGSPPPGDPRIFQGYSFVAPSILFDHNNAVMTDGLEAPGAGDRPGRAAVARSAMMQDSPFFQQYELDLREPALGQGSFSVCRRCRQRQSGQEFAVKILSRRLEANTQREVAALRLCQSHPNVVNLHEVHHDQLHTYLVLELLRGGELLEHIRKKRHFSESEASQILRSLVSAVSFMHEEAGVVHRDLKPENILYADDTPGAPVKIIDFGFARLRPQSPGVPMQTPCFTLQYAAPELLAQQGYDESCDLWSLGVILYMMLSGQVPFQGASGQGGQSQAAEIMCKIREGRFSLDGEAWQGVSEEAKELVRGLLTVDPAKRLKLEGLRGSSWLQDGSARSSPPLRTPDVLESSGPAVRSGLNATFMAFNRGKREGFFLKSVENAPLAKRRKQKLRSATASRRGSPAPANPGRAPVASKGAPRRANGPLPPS
UniProt P42681, sequence (whole entry, looked up): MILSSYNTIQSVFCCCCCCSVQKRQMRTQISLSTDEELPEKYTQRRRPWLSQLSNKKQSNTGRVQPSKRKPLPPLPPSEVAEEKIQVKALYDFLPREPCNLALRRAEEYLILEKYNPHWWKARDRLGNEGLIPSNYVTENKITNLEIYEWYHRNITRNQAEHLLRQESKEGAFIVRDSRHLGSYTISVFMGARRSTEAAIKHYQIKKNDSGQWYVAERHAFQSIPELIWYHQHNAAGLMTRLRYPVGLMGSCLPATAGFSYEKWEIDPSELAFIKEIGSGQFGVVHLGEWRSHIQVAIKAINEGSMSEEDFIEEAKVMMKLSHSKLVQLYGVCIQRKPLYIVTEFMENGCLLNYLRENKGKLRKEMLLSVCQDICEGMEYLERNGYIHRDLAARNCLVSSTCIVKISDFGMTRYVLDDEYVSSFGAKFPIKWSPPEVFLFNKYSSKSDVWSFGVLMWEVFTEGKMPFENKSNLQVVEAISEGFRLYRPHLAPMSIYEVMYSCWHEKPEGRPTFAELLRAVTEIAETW
UniProt Q16832, sequence (whole entry, looked up): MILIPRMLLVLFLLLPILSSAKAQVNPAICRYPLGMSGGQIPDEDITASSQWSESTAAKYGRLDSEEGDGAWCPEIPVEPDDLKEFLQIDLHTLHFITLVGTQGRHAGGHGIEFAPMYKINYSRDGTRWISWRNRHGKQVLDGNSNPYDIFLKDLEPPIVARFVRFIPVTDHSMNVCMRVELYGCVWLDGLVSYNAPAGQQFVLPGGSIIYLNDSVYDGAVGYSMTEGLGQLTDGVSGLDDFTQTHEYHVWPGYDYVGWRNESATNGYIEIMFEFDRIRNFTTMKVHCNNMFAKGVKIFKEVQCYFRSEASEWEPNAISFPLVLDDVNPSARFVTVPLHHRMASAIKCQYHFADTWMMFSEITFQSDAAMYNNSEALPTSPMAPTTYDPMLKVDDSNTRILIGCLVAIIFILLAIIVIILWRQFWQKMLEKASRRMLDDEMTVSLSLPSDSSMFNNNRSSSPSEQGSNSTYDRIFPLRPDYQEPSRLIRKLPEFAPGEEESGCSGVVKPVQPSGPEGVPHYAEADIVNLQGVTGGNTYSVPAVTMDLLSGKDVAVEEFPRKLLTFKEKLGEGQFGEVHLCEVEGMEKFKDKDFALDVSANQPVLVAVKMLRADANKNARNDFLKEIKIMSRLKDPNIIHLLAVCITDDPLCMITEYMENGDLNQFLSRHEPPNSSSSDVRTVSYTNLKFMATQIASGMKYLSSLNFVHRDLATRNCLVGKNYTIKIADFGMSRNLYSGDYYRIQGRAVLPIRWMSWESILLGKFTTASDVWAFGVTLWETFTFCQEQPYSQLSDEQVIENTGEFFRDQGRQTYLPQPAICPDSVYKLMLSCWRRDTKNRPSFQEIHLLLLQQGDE
UniProt P35968, sequence (whole entry, looked up): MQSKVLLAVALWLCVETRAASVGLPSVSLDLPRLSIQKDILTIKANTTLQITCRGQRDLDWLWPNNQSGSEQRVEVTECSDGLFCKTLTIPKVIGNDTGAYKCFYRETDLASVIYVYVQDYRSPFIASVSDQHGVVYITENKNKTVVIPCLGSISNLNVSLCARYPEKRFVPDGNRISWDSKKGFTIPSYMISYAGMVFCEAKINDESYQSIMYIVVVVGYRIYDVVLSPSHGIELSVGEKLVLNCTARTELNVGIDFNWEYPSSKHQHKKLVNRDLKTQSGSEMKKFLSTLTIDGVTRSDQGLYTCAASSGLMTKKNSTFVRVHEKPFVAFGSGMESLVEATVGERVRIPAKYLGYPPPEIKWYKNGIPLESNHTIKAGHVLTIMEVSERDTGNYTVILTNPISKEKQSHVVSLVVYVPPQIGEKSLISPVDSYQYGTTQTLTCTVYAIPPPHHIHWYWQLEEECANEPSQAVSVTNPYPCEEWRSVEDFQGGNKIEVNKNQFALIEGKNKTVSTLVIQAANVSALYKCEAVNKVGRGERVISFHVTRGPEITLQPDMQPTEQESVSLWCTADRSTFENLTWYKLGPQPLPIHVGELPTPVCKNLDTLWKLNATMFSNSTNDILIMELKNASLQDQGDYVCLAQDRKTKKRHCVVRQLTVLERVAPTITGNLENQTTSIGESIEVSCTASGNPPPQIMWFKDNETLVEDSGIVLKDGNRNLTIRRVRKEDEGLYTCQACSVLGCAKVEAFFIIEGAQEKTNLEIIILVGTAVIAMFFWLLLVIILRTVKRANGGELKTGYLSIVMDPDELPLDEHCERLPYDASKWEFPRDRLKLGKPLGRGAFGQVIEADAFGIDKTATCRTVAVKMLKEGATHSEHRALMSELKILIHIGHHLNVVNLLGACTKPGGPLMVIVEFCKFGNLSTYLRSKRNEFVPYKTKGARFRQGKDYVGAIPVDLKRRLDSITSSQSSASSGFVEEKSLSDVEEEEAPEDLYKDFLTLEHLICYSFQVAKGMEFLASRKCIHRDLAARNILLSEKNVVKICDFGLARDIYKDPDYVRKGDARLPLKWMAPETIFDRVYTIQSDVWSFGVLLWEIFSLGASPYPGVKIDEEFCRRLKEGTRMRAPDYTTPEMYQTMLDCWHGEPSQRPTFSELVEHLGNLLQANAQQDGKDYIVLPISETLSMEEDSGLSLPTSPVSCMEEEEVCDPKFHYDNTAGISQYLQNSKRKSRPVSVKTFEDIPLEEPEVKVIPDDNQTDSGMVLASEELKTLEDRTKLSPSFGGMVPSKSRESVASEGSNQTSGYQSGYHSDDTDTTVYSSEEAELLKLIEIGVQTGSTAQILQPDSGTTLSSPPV
UniProt P46734, sequence (whole entry, looked up): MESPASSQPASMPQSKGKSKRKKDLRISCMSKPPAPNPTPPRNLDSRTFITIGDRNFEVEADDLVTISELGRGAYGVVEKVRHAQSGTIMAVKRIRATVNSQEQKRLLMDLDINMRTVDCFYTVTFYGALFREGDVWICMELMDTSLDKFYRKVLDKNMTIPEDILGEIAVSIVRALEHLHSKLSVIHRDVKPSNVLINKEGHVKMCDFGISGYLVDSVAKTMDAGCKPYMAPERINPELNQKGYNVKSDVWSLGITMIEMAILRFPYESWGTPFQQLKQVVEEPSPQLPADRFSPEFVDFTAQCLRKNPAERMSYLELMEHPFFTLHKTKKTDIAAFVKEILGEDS
UniProt P28482, sequence (whole entry, looked up): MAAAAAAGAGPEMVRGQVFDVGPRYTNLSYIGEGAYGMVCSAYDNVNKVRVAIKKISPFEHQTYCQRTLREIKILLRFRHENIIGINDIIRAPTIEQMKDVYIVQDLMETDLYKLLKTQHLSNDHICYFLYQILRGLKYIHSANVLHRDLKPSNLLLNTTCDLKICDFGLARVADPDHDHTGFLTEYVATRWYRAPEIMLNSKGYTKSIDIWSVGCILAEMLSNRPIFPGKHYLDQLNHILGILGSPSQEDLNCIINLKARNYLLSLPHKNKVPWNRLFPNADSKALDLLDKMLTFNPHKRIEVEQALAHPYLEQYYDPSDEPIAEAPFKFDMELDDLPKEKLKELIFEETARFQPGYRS

Sample 1
SMILES: Cc1ccc(NC2=CC(=O)c3sc(C)nc3C2=O)cc1
Effect on: enzyme activity
Action: inhibitor
Concentration: 0.5 µM
Relative to: control
target | remaining activity
CDC42BPB (Homo sapiens, UniProt Q9Y5S2) | 109%
Cyclin-dependent kinase 1, with cyclin A (CDK1, Homo sapiens, UniProt P06493) | 75.9%
TXK (Homo sapiens, UniProt P42681) | 98.8%
NEK3 (Homo sapiens, UniProt P51956) | 88.2%
RPS6KA4 (Homo sapiens, UniProt O75676) | 88.4%
PNCK (Homo sapiens, UniProt Q6P2M8) | 95.3%
MAPK11 (Homo sapiens, UniProt Q15759) | 102%
MAPK1 (Homo sapiens, UniProt P28482) | 91.4%
AKT2 (Homo sapiens, UniProt P31751) | 91.3%
DDR2 (Homo sapiens, UniProt Q16832) | 95.6%
PLK3 (Homo sapiens, UniProt Q9H4B4) | 94.5%
DCLK2 (Homo sapiens, UniProt Q8N568) | 95.3%
KDR (Homo sapiens, UniProt P35968) | 101%
MINK1 (Homo sapiens, UniProt Q8N4C8) | 101%

Sample 2
Target: Bromodomain-containing protein 4, BD1 (BRD4, Homo sapiens, UniProt O60885)
Effect on: acetyl-histone H4 peptide binding
Method: AlphaScreen displacement
Concentration: 50 µM
SMILES | inhibition [%]
O=C1NC(=O)C(=Cc2ccc(-c3ccc(F)cc3)o2)S1 | 0.75
O=C(CSc1ccc2nnc(-c3cccc(F)c3)n2n1)Nc1cccc(Cl)c1 | 2.8
COc1cc(OC)c(C=C2C(=O)Nc3ccccc32)c(OC)c1 | 61.6
Cc1ccc(-c2csc3nc[nH]c(=O)c23)cc1 | 10.2
Cn1cc(C=C(C#N)c2nc3ccccc3s2)cn1 | 14.2
CCc1cc(-c2n[nH]c(C)c2-c2ccc3c(c2)OCCO3)c(O)cc1O | 65.7
CC(C)c1cc(/C=C(\C#N)C(=O)NCCCc2ccccc2)cc(C(C)C)c1O | 13.1
CCOC(=O)CCNc1ccc(Nc2ccc(C)cc2)c2c1C(=O)c1ccccc1C2=O | 90.2

Sample 3
Compound: COc1cc(C(=O)N2CCC(N3CCN(C)CC3)CC2)ccc1Nc1ncc2c(n1)N(C)c1ccccc1C(=O)N2C
Effect on: kinase activity
target | setting | remaining activity [%]
PIM2 | 1 µM | 87 ± 2
ERK1 | 10 µM | 104
PKBb | 10 µM | 79 ± 8
IKKb | 10 µM | 106 ± 7
PIM3 | 10 µM | 76 ± 4
SRPK1 | 10 µM | 110 ± 11

Sample 4
SMILES: O=C(Nc1ccccc1)Nc1cccc(Oc2ccc3nccn3n2)c1
Method: competitive binding panel
Concentration: 1 µM
Relative to: vehicle
target | test | remaining binding [%]
PI4KB (Homo sapiens, UniProt Q9UBF8) | item: PIK4CB | 100
PHKG2 (Homo sapiens, UniProt P15735) | – | 91
GRK4 (Homo sapiens, UniProt P32298) | – | 77
MAP2K3 (Homo sapiens, UniProt P46734) | item: MEK3 | 100
MAP4K1 (Homo sapiens, UniProt Q92918) | item: HPK1 | 67
SRMS (Homo sapiens, UniProt Q9H3Y6) | – | 100
